# Experimental data from different studies.
# Lines come from different studies, so protocols differ.
# UniProt P41252, sequence (whole entry, looked up): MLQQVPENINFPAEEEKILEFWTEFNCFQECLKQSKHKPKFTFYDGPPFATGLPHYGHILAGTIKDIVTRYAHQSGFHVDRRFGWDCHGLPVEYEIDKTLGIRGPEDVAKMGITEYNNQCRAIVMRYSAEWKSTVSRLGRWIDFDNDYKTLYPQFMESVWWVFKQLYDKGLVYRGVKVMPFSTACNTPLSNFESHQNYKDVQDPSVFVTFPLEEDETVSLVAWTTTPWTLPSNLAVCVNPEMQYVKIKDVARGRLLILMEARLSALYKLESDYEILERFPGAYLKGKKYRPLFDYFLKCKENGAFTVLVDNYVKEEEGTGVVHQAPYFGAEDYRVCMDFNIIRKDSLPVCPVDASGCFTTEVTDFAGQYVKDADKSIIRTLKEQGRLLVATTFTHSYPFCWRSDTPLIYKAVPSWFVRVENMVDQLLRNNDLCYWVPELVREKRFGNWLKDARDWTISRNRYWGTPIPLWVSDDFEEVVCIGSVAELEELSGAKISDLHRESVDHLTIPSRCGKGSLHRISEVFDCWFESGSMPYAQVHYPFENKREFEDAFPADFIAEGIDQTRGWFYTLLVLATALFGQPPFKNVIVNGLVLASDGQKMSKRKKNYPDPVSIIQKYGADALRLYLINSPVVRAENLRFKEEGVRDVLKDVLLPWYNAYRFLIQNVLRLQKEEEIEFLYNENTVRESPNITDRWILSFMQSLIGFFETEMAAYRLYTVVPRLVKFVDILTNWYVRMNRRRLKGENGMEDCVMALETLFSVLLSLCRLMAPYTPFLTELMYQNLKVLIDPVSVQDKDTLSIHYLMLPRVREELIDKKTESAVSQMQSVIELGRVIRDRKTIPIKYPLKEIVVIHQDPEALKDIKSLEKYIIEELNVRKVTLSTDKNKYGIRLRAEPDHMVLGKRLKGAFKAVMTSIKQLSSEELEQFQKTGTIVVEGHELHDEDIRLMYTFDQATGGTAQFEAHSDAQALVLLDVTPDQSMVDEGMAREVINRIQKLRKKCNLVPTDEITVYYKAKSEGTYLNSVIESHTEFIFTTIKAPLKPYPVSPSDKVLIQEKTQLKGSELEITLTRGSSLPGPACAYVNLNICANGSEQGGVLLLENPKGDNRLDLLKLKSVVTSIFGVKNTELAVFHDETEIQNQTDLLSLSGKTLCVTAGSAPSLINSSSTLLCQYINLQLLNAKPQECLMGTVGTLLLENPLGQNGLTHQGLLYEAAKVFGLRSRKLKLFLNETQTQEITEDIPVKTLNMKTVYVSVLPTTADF
# UniProt Q9NZH0, sequence (whole entry, looked up): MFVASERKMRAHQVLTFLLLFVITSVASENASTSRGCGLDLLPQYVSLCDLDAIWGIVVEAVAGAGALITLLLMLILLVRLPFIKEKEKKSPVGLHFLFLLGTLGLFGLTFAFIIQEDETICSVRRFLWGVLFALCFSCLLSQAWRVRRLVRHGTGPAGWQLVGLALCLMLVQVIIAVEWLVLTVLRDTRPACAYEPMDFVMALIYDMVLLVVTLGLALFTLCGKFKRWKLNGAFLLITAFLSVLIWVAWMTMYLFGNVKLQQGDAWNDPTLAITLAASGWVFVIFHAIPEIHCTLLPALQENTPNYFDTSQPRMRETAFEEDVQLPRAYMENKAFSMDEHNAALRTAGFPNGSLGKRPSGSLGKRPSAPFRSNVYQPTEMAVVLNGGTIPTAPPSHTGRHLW
# UniProt P62937, sequence (whole entry, looked up): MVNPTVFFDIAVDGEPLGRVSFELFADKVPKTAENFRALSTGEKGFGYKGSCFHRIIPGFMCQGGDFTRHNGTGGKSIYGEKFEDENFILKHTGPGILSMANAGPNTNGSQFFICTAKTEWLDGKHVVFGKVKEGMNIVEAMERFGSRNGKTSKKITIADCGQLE
# UniProt Q9NYY3, sequence (whole entry, looked up): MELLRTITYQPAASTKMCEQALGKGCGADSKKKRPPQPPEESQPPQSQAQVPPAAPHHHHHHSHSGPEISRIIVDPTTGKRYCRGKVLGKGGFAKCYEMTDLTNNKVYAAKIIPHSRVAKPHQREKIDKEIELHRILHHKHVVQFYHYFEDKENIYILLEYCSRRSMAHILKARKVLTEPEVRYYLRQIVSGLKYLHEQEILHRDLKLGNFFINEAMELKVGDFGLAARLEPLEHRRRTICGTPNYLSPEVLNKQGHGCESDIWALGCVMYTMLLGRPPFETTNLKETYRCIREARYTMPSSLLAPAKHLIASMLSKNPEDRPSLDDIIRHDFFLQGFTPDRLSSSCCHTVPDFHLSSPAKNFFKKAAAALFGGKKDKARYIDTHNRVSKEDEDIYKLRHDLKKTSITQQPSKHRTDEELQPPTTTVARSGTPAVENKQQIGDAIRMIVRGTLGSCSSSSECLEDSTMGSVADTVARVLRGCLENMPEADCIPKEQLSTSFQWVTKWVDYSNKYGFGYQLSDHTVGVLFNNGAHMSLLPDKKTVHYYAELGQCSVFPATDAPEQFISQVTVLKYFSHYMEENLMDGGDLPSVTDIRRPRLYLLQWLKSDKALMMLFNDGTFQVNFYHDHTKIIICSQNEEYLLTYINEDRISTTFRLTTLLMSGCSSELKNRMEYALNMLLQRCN
# UniProt Q9Y5N1, sequence (whole entry, looked up): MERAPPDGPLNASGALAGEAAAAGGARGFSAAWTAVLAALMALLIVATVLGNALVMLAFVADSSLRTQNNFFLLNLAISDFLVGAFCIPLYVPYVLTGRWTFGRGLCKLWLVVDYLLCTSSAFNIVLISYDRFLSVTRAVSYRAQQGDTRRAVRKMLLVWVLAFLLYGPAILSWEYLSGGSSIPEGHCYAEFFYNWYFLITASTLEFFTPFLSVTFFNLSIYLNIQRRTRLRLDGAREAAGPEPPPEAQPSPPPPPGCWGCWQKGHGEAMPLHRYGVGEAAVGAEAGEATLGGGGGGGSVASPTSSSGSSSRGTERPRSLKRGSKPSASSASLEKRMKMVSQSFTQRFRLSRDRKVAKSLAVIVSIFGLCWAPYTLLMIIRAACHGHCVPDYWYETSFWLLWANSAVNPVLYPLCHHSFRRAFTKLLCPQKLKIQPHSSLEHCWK
# UniProt P49116, sequence (whole entry, looked up): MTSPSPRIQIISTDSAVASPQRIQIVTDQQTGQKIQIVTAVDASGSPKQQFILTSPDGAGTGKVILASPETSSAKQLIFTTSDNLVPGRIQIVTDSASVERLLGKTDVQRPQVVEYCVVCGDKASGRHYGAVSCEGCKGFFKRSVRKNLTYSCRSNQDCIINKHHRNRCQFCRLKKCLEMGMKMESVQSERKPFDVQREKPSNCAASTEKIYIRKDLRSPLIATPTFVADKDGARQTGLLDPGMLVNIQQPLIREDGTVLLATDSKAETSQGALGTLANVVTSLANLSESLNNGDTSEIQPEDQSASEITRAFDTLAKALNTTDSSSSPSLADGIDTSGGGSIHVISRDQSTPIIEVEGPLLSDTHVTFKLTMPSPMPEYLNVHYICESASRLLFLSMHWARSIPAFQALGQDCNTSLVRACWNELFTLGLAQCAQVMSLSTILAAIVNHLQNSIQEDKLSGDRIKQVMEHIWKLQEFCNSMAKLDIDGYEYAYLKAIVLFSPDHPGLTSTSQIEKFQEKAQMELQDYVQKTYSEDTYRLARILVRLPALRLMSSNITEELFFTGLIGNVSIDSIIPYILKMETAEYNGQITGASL
# UniProt Q8IYT8, sequence (whole entry, looked up): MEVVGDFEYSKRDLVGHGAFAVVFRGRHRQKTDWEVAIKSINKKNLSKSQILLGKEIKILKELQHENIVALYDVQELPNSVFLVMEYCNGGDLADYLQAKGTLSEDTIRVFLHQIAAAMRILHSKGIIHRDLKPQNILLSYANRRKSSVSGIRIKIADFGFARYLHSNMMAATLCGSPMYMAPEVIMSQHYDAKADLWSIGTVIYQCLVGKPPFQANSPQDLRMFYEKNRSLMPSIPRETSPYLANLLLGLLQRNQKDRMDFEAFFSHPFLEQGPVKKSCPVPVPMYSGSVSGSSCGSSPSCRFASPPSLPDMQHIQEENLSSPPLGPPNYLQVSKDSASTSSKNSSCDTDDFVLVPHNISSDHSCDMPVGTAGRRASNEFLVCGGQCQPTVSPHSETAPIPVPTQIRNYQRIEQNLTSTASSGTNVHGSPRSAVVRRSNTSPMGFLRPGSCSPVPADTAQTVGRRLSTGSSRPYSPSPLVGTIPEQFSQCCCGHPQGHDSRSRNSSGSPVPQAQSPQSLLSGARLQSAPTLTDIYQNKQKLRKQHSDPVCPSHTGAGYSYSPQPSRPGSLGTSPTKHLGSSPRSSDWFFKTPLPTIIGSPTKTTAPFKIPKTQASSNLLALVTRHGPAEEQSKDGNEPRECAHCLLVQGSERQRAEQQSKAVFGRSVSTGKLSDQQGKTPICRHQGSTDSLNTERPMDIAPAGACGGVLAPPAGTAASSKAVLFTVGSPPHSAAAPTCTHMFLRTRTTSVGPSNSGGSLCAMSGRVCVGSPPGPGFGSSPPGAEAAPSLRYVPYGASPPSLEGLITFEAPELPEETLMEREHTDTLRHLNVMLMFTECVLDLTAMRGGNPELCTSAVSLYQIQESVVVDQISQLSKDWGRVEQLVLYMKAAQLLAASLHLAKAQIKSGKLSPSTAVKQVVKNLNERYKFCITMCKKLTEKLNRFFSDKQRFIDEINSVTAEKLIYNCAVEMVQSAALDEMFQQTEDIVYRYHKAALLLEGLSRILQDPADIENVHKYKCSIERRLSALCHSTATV
SMILES,target,test,test system,setting,how to read,endpoint,result
CCc1nc2nc(C)cc(Nc3cc(C)cc(C)c3)n2n1,"Dihydroorotate dehydrogenase (quinone), mitochondrial (PFF0160c, Plasmodium falciparum, UniProt Q08210, E182D)","enzyme activity, DCIP colorimetric",,,baseline: E182D mutant over wild type,IC50 ratio,27
[2H]c1c([2H])c([C@]2([2H])CCCN2C(=O)C(C)(C)Oc2ccc3cn[nH]c3c2)c([2H])c([2H])c1C([2H])([2H])[2H],"Serine/threonine-protein kinase ULK2 (ULK2, Homo sapiens, UniProt Q8IYT8)",KINOMEscan,,1 µM,baseline: DMSO control,remaining binding,86%
COc1cc(N)c(Cl)cc1C(=O)NC1CN2CCC1CC2 (centres unmarked),"G-protein coupled receptor family C group 5 member B (GPRC5B, Homo sapiens, UniProt Q9NZH0)","β-arrestin recruitment, TANGO luminescence, measured: GPRC5B",,concentration not given,baseline: basal luminescence,log2 fold change,0.281
CN1CCN(c2cc(-c3ccncc3)c(-c3ccc4ccccc4c3)nn2)CC1,"Histamine H3 receptor (HRH3, Homo sapiens, UniProt Q9Y5N1)","agonist, FLIPR",,12.5 µM,,activation,-1.5%
COc1ccc(N2C(=O)N(c3c(C)cccc3Cl)Cc3cnc(Nc4ccc(C5CCN(C)CC5)cc4OC)nc32)nc1,"Serine/threonine-protein kinase PLK2 (PLK2, Homo sapiens, UniProt Q9NYY3)",kinase activity,,0.5 µM,,inhibition,12%
O=S(=O)(F)Cc1ccccc1,"Nuclear receptor subfamily 2 group C member 2, ligand-binding domain (Homo sapiens, UniProt P49116)",SPR imaging,,600 nM,,koff,4.02e-07 s⁻¹
O=C(c1ccc(Cl)cc1)N1CCN2C(=O)N(OC(=O)N3CCOc4ccccc43)C(=O)C2C1 (centres unmarked),"Peptidyl-prolyl cis-trans isomerase A (PPIA, Homo sapiens, UniProt P62937)",MS-based ABPP,SW-620 conditioned medium,"10 µM, 1 h, 37 °C","baseline: compound over DMSO, lower = more inhibition",mean protein ratio,1.21
C[C@H]1CN(c2n[nH]c3nc(N[C@H]4CC[C@H](NS(=O)(=O)CCC(F)(F)F)CC4)ncc23)CCO1,"Isoleucine--tRNA ligase, cytoplasmic (Homo sapiens, UniProt P41252)","Kinobeads competition, measured: IARS",,"0.032 µM, unit not given",baseline: vehicle,remaining binding,0.84

# A few entries again:
SMILES,target,test,test system,setting,how to read,endpoint,result
CCc1nc2nc(C)cc(Nc3cc(C)cc(C)c3)n2n1,"Dihydroorotate dehydrogenase (quinone), mitochondrial (PFF0160c, Plasmodium falciparum, UniProt Q08210, E182D)","enzyme activity, DCIP colorimetric",,,baseline: E182D mutant over wild type,IC50 ratio,27
